Assay results pooled from the literature.
Every numbered part comes from another study and shows a few of its results, in no order. Substitutions count along the parent as printed.

Study 1 — method: RNA Bind-n-Seq; molecule type: RNA; sample: in vitro; tested at: 365 nM; reference: no-protein control; direction: higher = stronger binding
Target: RNA binding protein fox-1 homolog 2, RRM domain, GST-SBP tag (RBFOX2, Homo sapiens, UniProt O43251-10, residues 100-194)
Notes: natural RNA segment, single round, ends assumed
Shared flanks, not repeated: GGGAGUUCUACAGUCCGACGAUC … UGGAAUUCUCGGGUGCCAA
Target sequence (chain): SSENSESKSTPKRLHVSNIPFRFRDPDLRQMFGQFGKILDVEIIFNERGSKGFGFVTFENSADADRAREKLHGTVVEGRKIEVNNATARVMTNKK
Oligonucleotide | RBNS enrichment (R)
UCUGGGCCUGCCACCACGCCCCUGGCUAGUGCACCAAGACCUGCUGCUCCUGCCAGCAACCCACCACCACCGGCUCUCAUGUCUACAACUCAGAGCCGCCCACCCUGGAU | 0.433
UUCUCACUGAGUCUAUUGUUUGUCUUCACAUUGCUGAUGGAACGAAAUGUUGACACUCAGUGAUGUGCUGUGCAUCUUGAGGUCAGCAGGCACUAACCUGGCACCUUUUA | 0.6
UGGAGCCCAGGCGAGGGGGACGGCAAGGGCCUGUCUUUGUGCUCUGCCCCACCUAGCCUGGGCAGCAGGGCUGCCAAGGUCAGAAUGGCCUGGCUAGGAGCCCUUCAGGC | 0.283
CUAUUCUGUGUUGAACACAAUUGAUACUUCAGGUGCUUUUGAUGUGAAAAUCAUGAAAAGAGGAACAGGUGGAUGUAUAGCAUUUUUAUUCAUGCCAUCUGUUUUCAACC | 0.618
UUUUUUUAAUGAAUCAAUAGCAGCGUCCAGUCCCCCAGGGCUGCUUCCUGCCUGCACCUGCGGUGACUGUGAGCAGGAUCCUGGGGCCGAGGCUGCAGCUCAGGGCAACG | 0.283
UGAUGUUUUCAUAAUGUUUAAGGGACCCACUGCAAGAAGCUUGCUGCCUCCUUUUAAUUGUAUUCAUUUAGAUUUUGAUUUUCCAUGUUAAGAAGGUGAGGUCCAUGUUG | 0.436

Study 2 — method: DHFR PCA, deep sequencing; sample: yeast; together with: (+)-ABA 4.8 µM; reference: wild-type fitted maximum; direction: higher = stronger binding
Target: ABI1, truncated, D143A, DHFR fusion (Arabidopsis thaliana)
Notes: methotrexate growth selection, single substitutions
Parent: PYL1, truncated, DHFR fusion (Arabidopsis thaliana); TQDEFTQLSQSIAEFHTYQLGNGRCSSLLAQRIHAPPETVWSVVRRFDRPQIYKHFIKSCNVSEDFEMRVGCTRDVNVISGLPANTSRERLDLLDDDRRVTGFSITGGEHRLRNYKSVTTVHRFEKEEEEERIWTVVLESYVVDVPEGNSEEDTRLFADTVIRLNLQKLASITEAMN
Change | relative binding score
I12D | -2.92%
S9V | 54.1%
D144H | 7.5%

Study 3 — target: CCNB3, cyclin fold, Cln2 fusion (human); method: yeast growth competition, sequencing; sample: yeast; notes: weak parent motif; reference: not given; direction: higher = stronger binding
Parent: RB1 docking peptide (human); PKPLKKLRFDIEG; partner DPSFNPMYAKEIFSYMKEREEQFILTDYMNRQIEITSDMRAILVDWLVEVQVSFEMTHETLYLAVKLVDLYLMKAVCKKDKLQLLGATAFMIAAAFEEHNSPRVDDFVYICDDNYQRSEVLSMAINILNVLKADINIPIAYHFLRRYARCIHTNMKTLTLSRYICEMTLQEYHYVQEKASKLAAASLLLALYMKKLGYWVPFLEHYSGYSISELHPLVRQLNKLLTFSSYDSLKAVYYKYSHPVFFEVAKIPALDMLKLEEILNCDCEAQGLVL
Change | normalised enrichment score
P1T | 0.146
E12F | 0.217
F9I | -0.184
L4F | 0.495
D10R | 0.774

Single results of other studies
Substance | target | test | system | conditions | scale | endpoint | value
PhoQ, residues 284 288 289 292 302 303 ASVMEA | PhoP, residues 12 14 15 18 19 FWNTL (Escherichia coli, UniProt P23836) | Sort-seq, item: YFP reporter | E. coli | PhoQ-PhoP variant library, together with: 10 µM Mg2+ | reference: high Mg2+ state, higher = stronger signaling | fold induction | 9.5
